Assay results gathered from unrelated publications.
Compare with care: the assays were run in different laboratories. ± gives the spread as reported.
Cell line: Caco-2

| SMILES | assay | setting | IC50 |
| --- | --- | --- | --- |
| COC(=O)C1CN1S(=O)(=O)c1ccc2cc(OC)ccc2c1 (centres unmarked) | cell growth or viability, MTT | 48 h | 150 µM |
| Oc1ccccc1-c1nn(-c2ccccc2)[n+](-c2ccccc2)n1 | cell growth, resazurin |  | 280 ± 60 µM |
| N=C(N)NCCC[C@@H](N)C(=O)N[C@@H](Cc1c[nH]c2ccccc12)C(=O)N[C@@H](CCC(N)=O)C(=O)N[C@@H](Cc1c[nH]c2ccccc12)C(=O)N[C@@H](CCCNC(=N)N)C(=O)N[C@@H](Cc1c[nH]c2ccccc12)C(=O)N[C@@H](CCC(N)=O)C(=O)N[C@@H](Cc1c[nH]c2ccccc12)C(=O)N[C@@H](CCCNC(=N)N)C(N)=O | cell growth or viability, MTT |  | 105 µM |
| O=C(O)CNc1nc(NNC(=O)c2ccc(Nc3nc(Nc4ccc(C(=O)NNc5nc(NCC(=O)O)nc(N6CCOCC6)n5)cc4)nc(Nc4ccc(C(=O)NNc5nc(NCC(=O)O)nc(N6CCOCC6)n5)cc4)n3)cc2)nc(N2CCOCC2)n1 | cell growth or viability, MTT | 72 h | 0.0268 µM |
| [CH3][Pd-2]([Cl])([N+](=Cc1ccc[nH]1)Cc1ccccc1)[N+](=Cc1ccc[nH]1)Cc1ccccc1 | cell growth or viability, MTT | 24 h | > 100 µg/mL |
| CC(C)OC(=O)[C@]12CS[C@H](c3ccccc3)N1C(=O)/C(=C(\O)CCc1ccccc1)C2=O | cell viability, Alamar Blue |  | 15.6 µg/mL |
| C[S+](C)([O-])[Pt-2]([Cl])([Cl])[N+](=Cc1ccc[nH]1)Cc1ccccc1 | cell growth or viability, MTT | 24 h | 16.6 µg/mL |
| O=C(CNc1nc(O)nc(NNC(=O)c2ccc(Nc3nc(Nc4ccc(C(=O)NNc5nc(O)nc(NCC(=O)NO)n5)cc4)nc(Nc4ccc(C(=O)NNc5nc(O)nc(NCC(=O)NO)n5)cc4)n3)cc2)n1)NO | cell growth or viability, MTT | 72 h | 0.0346 µM |
| COc1cc(O)c2c(c1)O[C@H](c1ccccc1)CC2=O | cell growth or viability, MTT | 48 h | 86 µM |
| NC1=N[N+](=Cc2c3ccccc3cc3ccccc23)[Ga-3]23([S]1)([S]C(N)=N[N+]2=Cc1c2ccccc2cc2ccccc12)[S]C(N)=N[N+]3=Cc1c2ccccc2cc2ccccc12 |  | 72 h | 4.7 µM |
| O=C1/C(=C(\O)CCc2ccccc2)C(=O)[C@@]2(C(=O)OC3CCCCC3)CS[C@H](c3ccccc3)N12 | cell viability, Alamar Blue |  | 7.81 µg/mL |
| O=C(CNc1nc(NNC(=O)c2ccc(Nc3nc(Nc4ccc(C(=O)NNc5nc(NCC(=O)NO)nc(N6CCOCC6)n5)cc4)nc(Nc4ccc(C(=O)NNc5nc(NCC(=O)NO)nc(N6CCOCC6)n5)cc4)n3)cc2)nc(N2CCOCC2)n1)NO | cell growth or viability, MTT | 72 h | 0.0391 µM |
| CN(C)C(=S)N(C)N=Cc1ccccc1SSc1ccccc1C=NN(C)C(=S)N(C)C | cell proliferation, MTT | 72 h | 0.38 ± 0.06 µM |
| c1ccc(-c2nn(-c3ccccn3)[n+](-c3ccccc3)n2)cc1 | cell growth, resazurin |  | 13 ± 2 µM |
| O=[N][Fe]1([N]=O)[S](CCO)[Fe]([N]=O)([N]=O)[S]1CCO | cell growth or viability, CCK-8 |  | 39.3 µM |
| CCOC(=O)c1ccc(NC(=O)C(C#N)=C2C(=O)c3ccccc3C2=O)cc1 | cell viability | 24 h | 37.3 ± 2.4 µM |
| C=CCOC(=O)[C@]12CS[C@H](c3ccccc3)N1C(=O)/C(=C(\O)CCc1ccccc1)C2=O | cell viability, Alamar Blue |  | 7.81 µg/mL |
| O=C(/C=C(O)/C=C/c1cccs1)/C=C/c1cccs1 | cell growth or viability, SRB | 72 h | 46 µM |
| Oc1ccccc1-n1nc(-c2ccccc2)n[n+]1-c1ccccc1 | cell growth, resazurin |  | 250 ± 80 µM |
| O=C(CNc1nc(Cl)nc(NNC(=O)c2ccc(Nc3nc(Nc4ccc(C(=O)NNc5nc(Cl)nc(NCC(=O)NO)n5)cc4)nc(Nc4ccc(C(=O)NNc5nc(Cl)nc(NCC(=O)NO)n5)cc4)n3)cc2)n1)NO | cell growth or viability, MTT | 72 h | 0.0215 µM |

Repeated from above:
| SMILES | assay | setting | IC50 |
| --- | --- | --- | --- |
| O=C(O)CNc1nc(NNC(=O)c2ccc(Nc3nc(Nc4ccc(C(=O)NNc5nc(NCC(=O)O)nc(N6CCOCC6)n5)cc4)nc(Nc4ccc(C(=O)NNc5nc(NCC(=O)O)nc(N6CCOCC6)n5)cc4)n3)cc2)nc(N2CCOCC2)n1 | cell growth or viability, MTT | 72 h | 0.0268 µM |
| [CH3][Pd-2]([Cl])([N+](=Cc1ccc[nH]1)Cc1ccccc1)[N+](=Cc1ccc[nH]1)Cc1ccccc1 | cell growth or viability, MTT | 24 h | > 100 µg/mL |
| CC(C)OC(=O)[C@]12CS[C@H](c3ccccc3)N1C(=O)/C(=C(\O)CCc1ccccc1)C2=O | cell viability, Alamar Blue |  | 15.6 µg/mL |
